Published values from different studies.
Parts stem from different laboratories: compare values within a part only. Positions count from the first letter of the parent shown.

Study 1
Target: Probable WRKY transcription factor 50, DNA-binding domain (WRKY50, Arabidopsis thaliana, UniProt Q8VWQ5, residues 99-173)
Method: DNA-protein interaction ELISA
Form: double-stranded DNA, one strand shown
Matrix: in vitro, bacterial lysate
Concentration: not given
Setting: whole dsDNA probe, crude lysate protein
Reference: highest signal in screen
Reading: higher = stronger binding
Target sequence (chain): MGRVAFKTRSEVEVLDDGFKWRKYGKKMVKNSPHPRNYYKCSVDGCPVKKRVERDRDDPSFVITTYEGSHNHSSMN
| Oligonucleotide | relative absorbance |
| --- | --- |
| AAAAAACCTTACCTCATCCCTATCCCAAAA | 20.8 % of maximum |
| AAAAAACCGTCTTATCTCTCGTCCCTAAAA | 38.6 % of maximum |
| AAAAAACTGGTGTATCTCCTCAATTAAAAA | 24.8 % of maximum |
| AAAAAAGGGAGTCATGCTTCTTGTTTAAAA | 63.4 % of maximum |
| AAAAAACGCATCATAGCTACGCCCCAAAAA | 11.1 % of maximum |
| AAAAAATGCCCTTTTTATCTTTATGTAAAA | 21.3 % of maximum |
| AAAAAATCGCACTGCCGCCGATGGCTAAAA | 23.3 % of maximum |
| AAAAAAGGGTTTAGATGTCCTTCAAAAAAA | 9.08 % of maximum |

Study 2
Target: RNA binding protein fox-1 homolog 2, RRM domain, GST-SBP tag (RBFOX2, Homo sapiens, UniProt O43251-10, residues 100-194)
Method: RNA Bind-n-Seq
Form: RNA
Matrix: in vitro
Concentration: 365 nM
Setting: natural RNA segment, single round, ends assumed
Reference: no-protein control
Reading: higher = stronger binding
Residues (chain): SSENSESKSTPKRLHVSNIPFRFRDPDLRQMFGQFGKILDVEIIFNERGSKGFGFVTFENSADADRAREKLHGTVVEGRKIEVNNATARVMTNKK
| Oligonucleotide | RBNS enrichment (R) |
| --- | --- |
| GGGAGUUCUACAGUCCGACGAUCAAUAAGGCCCAAUUCAUCCCACAGCACUGAUCAUCUUUUAAUAUCCCACCCUAAGCGAACGGUAAGAAGGCCUCUCUUAAGAAGGGGAGACAGAUGGUCCUUAACUACUCUGGAAUUCUCGGGUGCCAA | 0.379 |
| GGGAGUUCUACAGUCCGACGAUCUUUAAUUUUUUUGUACUAGAAAAAAAUUUGAACAUUUUAGUUCUUGGUUAUAAAAAUGUUAAUUCAGAAUUAGUUUAAUGCCUUAAUUAAACUAAUUAAUAGCUUUGGACUGGAAUUCUCGGGUGCCAA | 0.624 |
| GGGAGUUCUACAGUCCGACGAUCCUUCCAUGACUAAUUUCUAAUUGUAACUCAACACACAUUGAGGUAUGGGCCCUCCUCAGUGACUUUAACUAGCUCAGAAACGUACUCCCCCACCAACCCCACCUCACCGCUGGAAUUCUCGGGUGCCAA | 0.796 |
| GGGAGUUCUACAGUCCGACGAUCAAGUAAUUACUAAAUGCACUUAAACCAGGGCAGGAAGGAAUGGAAGGAUGGAGCUAGAAAGCUCAGAGUGGGCCAGAGCAGGGGUGUGACACUUGCAAAGACAGGGCUCUUGGAAUUCUCGGGUGCCAA | 0.816 |
| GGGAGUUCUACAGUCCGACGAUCCCAAAUGCCUCCUGCUUCUCGUUAUAGGACUGAGUGAGGUCCUCAUAGCUCUGUGCUCUGGGCAGCUCUGAGCUCUCAGCCCUGUUGCUUUCAAUGUCAGUCACAGAGUGUGGAAUUCUCGGGUGCCAA | 0.404 |
| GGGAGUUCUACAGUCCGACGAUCGAGUGGGGGAGACUUCACCCUGGAGCCAAAGGCUACACCGUACGUGUAGUCCCAGAGCCCGUCACAGCCCUUGUGGUUCAAGCUUCUUCUGCCUCUUUAGGAAGUGAGGGUGGAAUUCUCGGGUGCCAA | 0.263 |
| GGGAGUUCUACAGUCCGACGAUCAGCCACGCUGCUCUUCCGAGACUUCCAUUCCUUUCUGAUUGGCACACGUGCAGCUCAUGACAAUCUGUAGGAUAACAAUCAGUGUGGAUUUCCACUCUUUUCAGUCCUUCUGGAAUUCUCGGGUGCCAA | 0.166 |
| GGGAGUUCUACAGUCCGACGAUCAUCAACCACAACAUAGCAGGCAUUCCCUUGCAGCUGCAGUACAGUAGCAGUGUCCUUUUCUGAGGAAGGAAGUCUUAAACCCUUUCCCCCCACCCCCUGGGAUGACUGCCUGGAAUUCUCGGGUGCCAA | 0.299 |

Study 3
Target: TAR DNA-binding protein 43, full length, His tag (TARDBP, Homo sapiens, UniProt Q13148, residues 1-414)
Method: RNA Bind-n-Seq
Form: RNA
Matrix: in vitro
Concentration: 20 nM
Setting: 6-mer, flanks averaged, single round
With: 150 mM LiCl
Reference: input library
Reading: higher = stronger binding
| Oligonucleotide | 6-mer enrichment (R) |
| --- | --- |
| GCGUAC | 0.903 |
| CCACUA | 0.908 |
| GGUGCC | 1.09 |
| CAAUGC | 0.865 |
| CCAGGG | 1.03 |
| AAAGCG | 0.884 |
| CUUAGU | 0.936 |
| UUGCAU | 0.994 |

Mixed results
Starting sequence: PafA, mature enzyme, eGFP fusion (Elizabethkingia meningoseptica, UniProt Q9KJX5); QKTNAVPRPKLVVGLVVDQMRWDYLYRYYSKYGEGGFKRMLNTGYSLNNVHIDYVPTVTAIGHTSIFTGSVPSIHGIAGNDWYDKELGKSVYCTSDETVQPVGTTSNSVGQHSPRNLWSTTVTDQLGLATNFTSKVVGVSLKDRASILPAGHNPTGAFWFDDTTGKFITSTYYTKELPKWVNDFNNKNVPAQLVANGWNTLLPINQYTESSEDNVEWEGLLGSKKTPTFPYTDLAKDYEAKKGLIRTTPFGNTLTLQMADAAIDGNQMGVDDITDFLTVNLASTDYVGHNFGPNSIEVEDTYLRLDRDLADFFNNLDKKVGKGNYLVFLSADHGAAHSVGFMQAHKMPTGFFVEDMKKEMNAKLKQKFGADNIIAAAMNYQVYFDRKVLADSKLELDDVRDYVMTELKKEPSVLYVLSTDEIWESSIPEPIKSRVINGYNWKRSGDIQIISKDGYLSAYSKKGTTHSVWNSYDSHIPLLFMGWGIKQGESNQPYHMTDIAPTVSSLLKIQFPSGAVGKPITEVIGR
| Variant | target | test | test system | conditions | scale | endpoint | result |
| --- | --- | --- | --- | --- | --- | --- | --- |
| Q206G | inorganic phosphate, free oxyanion | microfluidic competitive inhibition | in vitro, cell-free expressed | not given, derived from inhibition constants, unchanged parent 615000 nM | lower = stronger binding | phosphate dissociation constant | 444 µM |

For quick reference, copied from above (study 3):
| Oligonucleotide | 6-mer enrichment (R) |
| --- | --- |
| GGUGCC | 1.09 |
| CAAUGC | 0.865 |
| CCAGGG | 1.03 |
